# Earlier results as cited in several papers.
# Each numbered part shows a few of the values that one paper quotes.
# UniProt P04789, sequence (whole entry, looked up): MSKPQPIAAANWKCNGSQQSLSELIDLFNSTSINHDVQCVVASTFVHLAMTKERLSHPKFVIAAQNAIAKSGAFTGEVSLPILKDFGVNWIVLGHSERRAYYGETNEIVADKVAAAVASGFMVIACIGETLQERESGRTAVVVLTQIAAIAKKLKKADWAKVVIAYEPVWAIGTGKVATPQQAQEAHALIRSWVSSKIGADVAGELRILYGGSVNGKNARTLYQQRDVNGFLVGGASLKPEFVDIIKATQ

# Series 1
# Target: HLA class I histocompatibility antigen, C alpha chain, allele C*04:01 (Homo sapiens, UniProt P10321)
# Effect on: peptide-MHC binding
# Form: peptide
Molecule,IC50 [µM]
YPDPVIKV,> 20
LYPTFYCLF,3.35
SYMSTFPLF,0.089
MMMSTAVAF,3.23
FQPQNGQYI,20
SEFWLNYTA,> 5
FPYAIRLVA,> 5
KSLTTTMQFK,> 20
SLMASSPTSI,> 20
YTFFFTQYF,20
RPAPARLPL,> 5
LPSCPTNFCIF,> 20
FARQNNGAF,> 5

# Single results of other studies
Structure (SMILES),target or system,test,test system,setting,measurement,result
CN(C(=O)n1cnc(-c2ccc[n+]([O-])c2)c1)C1CCCCC1,,,mice,13 weeks repeated daily dosing,NOAEL,25 mg/kg/day
COc1ccc(C[C@@H](C)[C@@H](C)Cc2ccc(OC)c(OC)c2)cc1OC,,,mouse,intraperitoneal,LD50,300 mg/kg
CCNC(=O)[C@H]1O[C@@H](n2cnc3c(N)ncnc32)[C@H](O)[C@@H]1O,"adenosine receptor (bovine), non-selective","binding, radioligand binding",,,Kd,0.0077 µM
CC(C)(O/N=C(\C(=O)N[C@@H]1C(=O)N2C(C(=O)[O-])=C(C[N+]3(CCNC(=O)c4ccc(O)c(O)c4Cl)CCCC3)CS[C@H]12)c1csc(N)n1)C(=O)O,KPC-2,"hydrolysis by enzyme, substrate",,,Km,> 500 µM
O=C(Nc1cnccc1CO)[C@@H]1COc2ccc(Cl)cc21,main protease (Mpro),,,20 µM,inhibition,46.1%
CCN(CC)CCCC(C)Nc1c2ccc(Cl)cc2nc2ccc(OC)cc12 (centres unmarked),,,human liver microsomes,,intrinsic clearance,50.5 µL/min/mg protein
CCc1c2c(nc3ccc(OC(=O)N4CCC(N5CCCCC5)CC4)cc13)-c1cc3c(c(=O)n1C2)COC(=O)[C@]3(O)CC,,refers to: maternal and offspring development,rat,perinatal and lactation dosing,NOAEL,1.2 mg/kg
Cc1o[nH]c(=O)c1CC(N)C(=O)O (centres unmarked),AMPA,"binding, ligand binding",,,Kd,0.028 µM
C=C[C@@H]1C[C@]1(NC(=O)[C@@H]1C[C@@H]2CN1C(=O)[C@H](C(C)(C)C)NC(=O)O[C@@H]1C[C@H]1CCCCCc1nc3ccc(OC)cc3nc1O2)C(=O)NS(=O)(=O)C1CC1,UGT1A1,inhibitor,,,IC50,54 µM
CCN(CC)CCOc1ccc2c(c1)C(=O)c1cc(OCCN(CC)CC)ccc1-2,,,mouse liver microsomes,,intrinsic clearance,13.5 µL/min/mg protein
CO[C@@H](C)Cn1c(=O)n(C)c2cnc3ccc(-c4cncc(C(C)(C)O)c4)cc3c21,,,human breast cancer patients,added: fulvestrant,maximum tolerated dose,200 mg twice daily
O=C[C@H](O)COP(=O)(O)O,"Triosephosphate isomerase, glycosomal (Trypanosoma brucei brucei, UniProt P04789)",substrate,,pH 7.5,Km,330 µM
Cc1ccncc1NC(=O)C1(c2cccc(Cl)c2)CC1,main protease (Mpro),,,20 µM,inhibition,38.4%
